Measured values of several laboratories.
Lines come from different studies, so protocols differ. ± marks the error that the study gave.
TAF1L BD2: Transcription initiation factor TFIID subunit 1-like, BD2 (TAF1L, Homo sapiens, UniProt Q8IZX4)
PTGS2: Prostaglandin G/H synthase 2 (PTGS2, Homo sapiens, UniProt P35354)
UniProt P35354, sequence (whole entry, looked up): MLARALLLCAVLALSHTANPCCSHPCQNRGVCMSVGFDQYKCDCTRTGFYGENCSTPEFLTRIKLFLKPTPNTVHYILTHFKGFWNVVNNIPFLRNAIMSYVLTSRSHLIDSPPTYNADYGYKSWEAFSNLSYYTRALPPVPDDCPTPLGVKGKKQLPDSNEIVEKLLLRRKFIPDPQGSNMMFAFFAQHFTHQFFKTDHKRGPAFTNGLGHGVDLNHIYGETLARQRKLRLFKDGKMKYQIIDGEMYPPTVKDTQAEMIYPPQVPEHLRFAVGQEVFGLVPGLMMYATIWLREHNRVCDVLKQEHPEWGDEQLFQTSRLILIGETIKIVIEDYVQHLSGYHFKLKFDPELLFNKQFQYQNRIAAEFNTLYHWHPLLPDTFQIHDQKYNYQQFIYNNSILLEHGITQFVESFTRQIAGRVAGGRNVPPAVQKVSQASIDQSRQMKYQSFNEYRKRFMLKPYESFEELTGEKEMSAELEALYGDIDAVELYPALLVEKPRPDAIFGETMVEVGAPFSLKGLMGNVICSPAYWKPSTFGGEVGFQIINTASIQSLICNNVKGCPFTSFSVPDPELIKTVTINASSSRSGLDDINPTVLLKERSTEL
CSNK1E: Casein kinase I isoform epsilon (CSNK1E, Homo sapiens, UniProt P49674)
UniProt P49674, sequence (whole entry, looked up): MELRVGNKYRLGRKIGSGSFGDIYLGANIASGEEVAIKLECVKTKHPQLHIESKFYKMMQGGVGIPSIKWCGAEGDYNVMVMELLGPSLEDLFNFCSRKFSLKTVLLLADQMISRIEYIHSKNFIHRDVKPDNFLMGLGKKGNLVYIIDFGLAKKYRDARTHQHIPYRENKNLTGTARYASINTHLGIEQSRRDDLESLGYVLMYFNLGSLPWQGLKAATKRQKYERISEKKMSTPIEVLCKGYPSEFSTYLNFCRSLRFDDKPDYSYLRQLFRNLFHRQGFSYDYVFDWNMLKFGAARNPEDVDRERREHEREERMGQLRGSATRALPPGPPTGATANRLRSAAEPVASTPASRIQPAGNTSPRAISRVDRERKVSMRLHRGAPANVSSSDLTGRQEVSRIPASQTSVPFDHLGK
NTRK3: NT-3 growth factor receptor (NTRK3, Homo sapiens, UniProt Q16288)
UniProt Q16288, sequence (whole entry, looked up): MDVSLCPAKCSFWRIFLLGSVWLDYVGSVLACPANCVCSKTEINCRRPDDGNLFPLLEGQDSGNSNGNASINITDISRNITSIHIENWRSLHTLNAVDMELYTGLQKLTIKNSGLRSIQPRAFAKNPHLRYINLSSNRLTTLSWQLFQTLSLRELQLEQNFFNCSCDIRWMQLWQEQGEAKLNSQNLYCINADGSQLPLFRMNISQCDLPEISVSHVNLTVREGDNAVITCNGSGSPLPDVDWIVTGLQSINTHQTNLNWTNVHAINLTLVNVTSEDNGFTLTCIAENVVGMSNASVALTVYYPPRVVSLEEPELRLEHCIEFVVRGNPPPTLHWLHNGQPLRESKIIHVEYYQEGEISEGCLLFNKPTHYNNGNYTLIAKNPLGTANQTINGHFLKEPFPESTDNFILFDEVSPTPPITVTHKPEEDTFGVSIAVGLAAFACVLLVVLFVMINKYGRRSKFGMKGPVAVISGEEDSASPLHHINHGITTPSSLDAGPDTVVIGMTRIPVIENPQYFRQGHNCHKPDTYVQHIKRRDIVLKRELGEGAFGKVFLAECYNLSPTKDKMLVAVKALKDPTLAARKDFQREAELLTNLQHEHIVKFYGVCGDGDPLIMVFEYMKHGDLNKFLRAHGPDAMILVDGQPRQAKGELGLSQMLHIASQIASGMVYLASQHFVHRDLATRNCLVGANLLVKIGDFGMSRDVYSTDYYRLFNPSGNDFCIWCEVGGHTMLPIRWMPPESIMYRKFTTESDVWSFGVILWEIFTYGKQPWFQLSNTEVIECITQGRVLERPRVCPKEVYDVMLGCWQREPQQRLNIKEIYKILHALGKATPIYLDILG
DRD2: D(2) dopamine receptor (DRD2, Homo sapiens, UniProt P14416)
UniProt P14416, sequence (whole entry, looked up): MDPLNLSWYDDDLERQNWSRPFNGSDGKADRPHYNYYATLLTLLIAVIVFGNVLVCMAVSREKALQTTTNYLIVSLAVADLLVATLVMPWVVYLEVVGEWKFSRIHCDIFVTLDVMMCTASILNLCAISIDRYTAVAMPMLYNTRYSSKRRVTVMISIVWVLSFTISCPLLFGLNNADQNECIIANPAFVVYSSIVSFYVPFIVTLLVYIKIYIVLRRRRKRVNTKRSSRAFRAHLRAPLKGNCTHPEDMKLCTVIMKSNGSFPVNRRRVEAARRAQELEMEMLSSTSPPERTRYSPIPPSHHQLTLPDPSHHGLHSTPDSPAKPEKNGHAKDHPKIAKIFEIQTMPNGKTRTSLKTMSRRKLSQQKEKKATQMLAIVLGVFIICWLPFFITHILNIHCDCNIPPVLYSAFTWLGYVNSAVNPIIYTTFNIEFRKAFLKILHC
KRAS C118S/G12V with SOS1: GTPase KRas, with SOS1 (KRAS, Homo sapiens, UniProt P01116, C118S/G12V)
Lysine--tRNA ligase, cytoplasmic: Lysine--tRNA ligase, cytoplasmic (Arabidopsis thaliana, UniProt Q9ZPI1)
UniProt Q9ZPI1, sequence (whole entry, looked up): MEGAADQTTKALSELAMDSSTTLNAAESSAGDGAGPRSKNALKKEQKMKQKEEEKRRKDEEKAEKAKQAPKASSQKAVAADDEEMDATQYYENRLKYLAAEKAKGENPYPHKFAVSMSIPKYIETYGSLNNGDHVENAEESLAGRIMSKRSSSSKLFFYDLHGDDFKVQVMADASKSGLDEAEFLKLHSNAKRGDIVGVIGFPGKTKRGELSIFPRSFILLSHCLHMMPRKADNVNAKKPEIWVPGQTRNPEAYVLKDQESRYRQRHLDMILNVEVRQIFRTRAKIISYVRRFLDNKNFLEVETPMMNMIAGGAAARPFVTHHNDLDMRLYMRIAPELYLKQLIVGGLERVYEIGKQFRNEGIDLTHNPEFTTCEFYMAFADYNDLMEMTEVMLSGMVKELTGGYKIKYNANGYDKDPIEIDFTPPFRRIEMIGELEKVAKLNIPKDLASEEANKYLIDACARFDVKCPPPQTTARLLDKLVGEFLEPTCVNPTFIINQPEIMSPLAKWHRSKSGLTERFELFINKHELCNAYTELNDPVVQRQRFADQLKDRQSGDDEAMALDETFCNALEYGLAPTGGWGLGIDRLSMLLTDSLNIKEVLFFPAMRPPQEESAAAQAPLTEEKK
CDK6 with cyclin D1: Cyclin-dependent kinase 6, with cyclin D1 (CDK6, Homo sapiens, UniProt Q00534)
UniProt Q00534, sequence (whole entry, looked up): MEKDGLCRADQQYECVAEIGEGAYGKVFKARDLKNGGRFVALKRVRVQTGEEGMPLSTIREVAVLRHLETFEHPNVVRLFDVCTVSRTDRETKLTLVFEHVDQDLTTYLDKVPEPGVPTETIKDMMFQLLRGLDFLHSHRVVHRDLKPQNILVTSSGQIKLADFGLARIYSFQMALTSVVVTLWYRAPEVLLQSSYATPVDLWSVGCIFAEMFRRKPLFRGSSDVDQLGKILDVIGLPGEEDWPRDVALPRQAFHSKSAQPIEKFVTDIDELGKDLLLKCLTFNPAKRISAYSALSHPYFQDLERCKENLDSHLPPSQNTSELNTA
FAAH: Fatty-acid amide hydrolase 1 (FAAH, Homo sapiens, UniProt O00519)
UniProt O00519, sequence (whole entry, looked up): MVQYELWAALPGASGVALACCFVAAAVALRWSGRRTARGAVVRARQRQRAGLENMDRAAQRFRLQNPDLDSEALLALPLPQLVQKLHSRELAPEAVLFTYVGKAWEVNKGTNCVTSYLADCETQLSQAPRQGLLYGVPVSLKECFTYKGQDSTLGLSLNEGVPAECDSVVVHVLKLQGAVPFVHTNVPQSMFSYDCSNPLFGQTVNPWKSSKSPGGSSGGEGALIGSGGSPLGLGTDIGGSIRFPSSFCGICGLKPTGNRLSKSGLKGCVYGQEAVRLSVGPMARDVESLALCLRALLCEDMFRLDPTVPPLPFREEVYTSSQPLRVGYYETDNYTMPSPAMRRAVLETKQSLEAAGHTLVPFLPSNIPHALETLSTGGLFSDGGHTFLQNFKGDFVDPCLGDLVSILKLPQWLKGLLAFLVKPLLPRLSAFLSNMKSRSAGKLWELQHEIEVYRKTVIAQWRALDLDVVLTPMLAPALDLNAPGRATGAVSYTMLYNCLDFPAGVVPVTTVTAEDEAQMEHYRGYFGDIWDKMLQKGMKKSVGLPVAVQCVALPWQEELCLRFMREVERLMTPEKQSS
DNA polymerase catalytic subunit: DNA polymerase catalytic subunit (Human cytomegalovirus, UniProt P08546)
60 kDa heat shock protein, mitochondrial with HSP10: 60 kDa heat shock protein, mitochondrial, with HSP10 (Homo sapiens, UniProt P10809)
UniProt P10809, sequence (whole entry, looked up): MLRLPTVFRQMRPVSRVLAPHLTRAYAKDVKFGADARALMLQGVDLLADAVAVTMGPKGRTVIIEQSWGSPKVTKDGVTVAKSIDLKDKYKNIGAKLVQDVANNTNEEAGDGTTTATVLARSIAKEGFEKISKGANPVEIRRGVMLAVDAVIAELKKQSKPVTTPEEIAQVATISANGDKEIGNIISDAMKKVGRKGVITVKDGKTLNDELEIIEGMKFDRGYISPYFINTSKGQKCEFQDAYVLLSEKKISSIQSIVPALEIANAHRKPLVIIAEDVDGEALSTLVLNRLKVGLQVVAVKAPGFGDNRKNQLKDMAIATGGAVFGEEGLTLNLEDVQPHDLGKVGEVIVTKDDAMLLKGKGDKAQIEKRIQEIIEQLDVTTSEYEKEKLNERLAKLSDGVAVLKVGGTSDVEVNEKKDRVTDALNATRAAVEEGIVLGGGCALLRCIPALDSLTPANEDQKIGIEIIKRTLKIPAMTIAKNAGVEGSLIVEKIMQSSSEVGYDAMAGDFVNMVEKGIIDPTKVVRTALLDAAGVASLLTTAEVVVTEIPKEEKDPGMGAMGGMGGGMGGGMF
MCL1: Induced myeloid leukemia cell differentiation protein Mcl-1 (MCL1, Homo sapiens, UniProt Q07820)
UniProt Q07820, sequence (whole entry, looked up): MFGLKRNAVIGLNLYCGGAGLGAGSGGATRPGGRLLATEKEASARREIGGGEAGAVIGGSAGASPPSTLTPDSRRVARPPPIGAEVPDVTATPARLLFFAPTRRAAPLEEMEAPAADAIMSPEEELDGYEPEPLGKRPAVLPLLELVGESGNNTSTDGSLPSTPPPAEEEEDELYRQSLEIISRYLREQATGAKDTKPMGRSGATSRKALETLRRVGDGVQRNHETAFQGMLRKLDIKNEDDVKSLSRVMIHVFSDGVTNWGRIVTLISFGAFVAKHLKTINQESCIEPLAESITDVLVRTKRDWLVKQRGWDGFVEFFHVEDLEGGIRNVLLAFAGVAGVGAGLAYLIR
UniProt P02776, sequence (whole entry, looked up): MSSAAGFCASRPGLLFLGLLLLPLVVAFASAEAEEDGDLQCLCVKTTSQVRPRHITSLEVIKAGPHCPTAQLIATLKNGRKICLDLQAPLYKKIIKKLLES

SMILES	target	test	system	setting	IC50
COC1CCN(c2ccc3c4c(cccc24)C(=O)N(c2cc4c(cc2C)n(C)c(=O)n4C)C3=O)CC1	TAF1L BD2	HTRF	–	GST-tagged protein	48.6 nM
CCCN1CC(c2ccc(S(C)(=O)=O)cc2)=C(c2ccc(C)cc2)C1=O	PTGS2	inhibitor	–	–	18 nM
O=C(CCC(=O)N[C@@H](CCCCNC(=S)NCCc1cc(O)on1)C(=O)N[C@@H](Cc1c[nH]c2ccccc12)C(=O)NC1CCC1)NCCOCCOCCCCCCCl	SIRT5 (Homo sapiens, UniProt Q9NXA8)	enzyme activity, inhibitor	–	–	190 ± 10 nM
CC(C)NC(=O)COc1cccc(-c2nc(Nc3ccc4[nH]ncc4c3)c3ccccc3n2)c1	UGT2B7 (Homo sapiens, UniProt P16662)	enzyme activity, inhibitor	recombinant microsomes	added: diclofenac	4140 nM
Cn1cnc(Cn2ccc3ccc(CNCc4[nH]c5ccccc5c4[C@H]4NC(=O)c5ccc(O)cc54)cc32)c1	GTPase KRas, GppNHp; with RAF1 RBD (KRAS, Homo sapiens, UniProt P01116, Q61H)	HTRF	–	–	4400 ± 1400 nM
Cc1cccc(-c2nc(-c3ccc(C(N)=O)cc3)[nH]c2-c2ccncc2)c1	CSNK1E	inhibitor	–	–	300 ± 16 nM
C[C@@H]1CN(C(=O)c2ccc(NC(=O)c3cc(O[C@H](C)c4c(Cl)ccc(F)c4Cl)c(N)nn3)cc2)C[C@H](C)N1	NTRK3	enzyme activity, inhibitor	–	added: 1 mM ATP	20 nM
CC(C)CCC[C@@H](C)[C@H]1CC[C@H]2[C@@H]3CC[C@H]4C[C@@H](O[C@@H]5O[C@H](COS(=O)(=O)O)[C@@H](O[C@H]6O[C@H](COS(=O)(=O)O)[C@@H](O[C@H]7O[C@H](COS(=O)(=O)O)[C@@H](O[C@H]8O[C@H](COS(=O)(=O)O)[C@@H](OS(=O)(=O)O)[C@H](OS(=O)(=O)O)[C@H]8OS(=O)(=O)O)[C@H](OS(=O)(=O)O)[C@H]7OS(=O)(=O)O)[C@H](OS(=O)(=O)O)[C@H]6OS(=O)(=O)O)[C@H](OS(=O)(=O)O)[C@H]5OS(=O)(=O)O)CC[C@]4(C)[C@H]3CC[C@]12C	Platelet factor 4 (Homo sapiens, UniProt P02776)	PF4 binding to heparin, inhibitor, BLI competition	–	added: immobilized heparin	9.62 ± 0.84 nM
Cc1[nH]c(C)c(S(=O)(=O)Nc2ccc(NS(C)(=O)=O)c(Cl)c2)c1C(=O)N1CCC(F)(F)C1	DRD2	–	–	–	> 100000 nM
C[C@H](Oc1nccc(-c2noc([C@@]3(C)CCCc4sc(N)c(C#N)c43)n2)n1)[C@@H]1CCCN1C	KRAS C118S/G12V with SOS1	KRAS G12V-SOS1 interaction, inhibitor, AlphaScreen	–	geometric mean	6 nM
Cc1nc2ccc(Cl)cc2c(=O)n1NC1=NC(=O)CS1	XDH (Bos taurus, UniProt P80457)	enzyme activity, inhibitor	–	–	138000 ± 4950 nM
Cc1ccc2[nH]nc(-c3nnc(Nc4ccc(O)cc4)s3)c2c1	α-glucosidase	enzyme activity, inhibitor	–	pH 6.8, added: p-nitrophenyl-α-D-glucopyranoside	4250 ± 1230 nM
COc1c(N)nsc1C(=O)NCC1CCCCC1	Lysine--tRNA ligase, cytoplasmic	enzyme activity, inhibitor	–	–	3980 nM
Cc1nn(-c2nc3c(F)cc(F)cc3s2)c(O)c1C(c1cccc(C(F)(F)F)c1)c1c(C)nn(-c2nc3c(F)cc(F)cc3s2)c1O	CGAS (Homo sapiens, UniProt Q8N884)	enzyme activity, pyrophosphatase-coupled	–	mean of 3 experiments	23100 nM
Cc1cnc(-c2ccc(-c3ccc(NC(=O)Nc4c(F)cc(F)cc4F)cc3F)c3c2C(=O)NC3)[nH]1	NTRK2 (Homo sapiens, UniProt Q16620)	enzyme activity, inhibitor, mobility shift	–	added: ATP 1 mM	8.4 nM
C[C@H]1CN(CC(F)(F)F)CCN1c1nccc(-c2noc([C@@]3(C)CCCc4sc(N)c(C#N)c43)n2)n1	GTPase KRas, with SOS1 (KRAS, Homo sapiens, UniProt P01116)	KRAS wild type-SOS1 interaction, inhibitor, AlphaScreen	–	geometric mean	12500 nM
COc1ccc(-c2cc(=O)c3ccc(Nc4ncc5cc(C(=O)N(C)C)n(C6CCCC6)c5n4)cc3o2)cc1	CDK6 with cyclin D1	inhibitor, HotSpot radiometric kinase	–	added: 10 µM ATP, cyclin D1	28 nM
Cc1[nH]c(C)c(S(=O)(=O)Nc2ccc(C(=O)C(F)(F)F)c(Cl)c2)c1C(=O)N1CCC(F)(F)C1	DRD2	–	–	–	> 100000 nM
CCOC(=O)/C=C/c1ccc(OC)cc1	PTGS2	inhibitor	–	–	830 nM

SMILES	target	test	system	setting	IC50
CN(C)C(=O)c1cc2cnc(Nc3ccc(-c4cccc5c(=O)cc(N6CCNCC6)oc45)cc3)nc2n1C1CCCC1	CDK6 with cyclin D1	inhibitor, HotSpot radiometric kinase	–	added: 10 µM ATP, cyclin D1	390 nM
Nc1nsc(C(=O)NCC2CCCCC2)c1C#CC1CC1	Lysine--tRNA ligase, cytoplasmic	enzyme activity, inhibitor	–	–	63100 nM
Cc1cc2c(cc1N1C(=O)c3cccc4c(Br)ccc(c34)C1=O)n(C)c(=O)n2C	TAF1L BD2	HTRF	–	GST-tagged protein	18.8 nM
CCCCCCCCOC(C)=O	uncharacterized protein (Spodoptera exigua, UniProt F1CEY0)	binding, fluorescence competitive binding	–	added: 1-NPN 2.0 µM	7990 nM
COc1cccc(F)c1-c1nc(-c2ccc(F)cc2)c(-c2ccncc2)[nH]1	CSNK1E	inhibitor	–	–	108 ± 14.8 nM
COc1ccc(-c2oc3cc(Nc4ncc5cc(C(=O)N(C)C)n(C6CCCC6)c5n4)ccc3c(=O)c2F)cc1	CDK6 with cyclin D1	inhibitor, HotSpot radiometric kinase	–	added: 10 µM ATP, cyclin D1	5260 nM
N#Cc1ccc2nc(Nc3ccc(N4CCOCC4)c(Cl)c3)[nH]c2c1	CSNK1E	NanoBRET tracer K8 binding	intact cells	–	> 30000 nM
Cc1ccc(NS(=O)(=O)c2c(C(=O)N3CCC(F)(F)C3)c(=O)[nH]n2C)cc1Cl	DRD2	–	–	–	> 100000 nM
O=C(Nc1cnccc1Cl)N1CCN(Cc2ccc3c(c2)OC(F)(F)O3)CC1	FAAH	enzyme activity, inhibitor	COS cells expressing human FAAH	3 h	25.1 nM
Cc1c(N)nsc1C(=O)NCC1CCCCC1	Lysine--tRNA ligase, cytoplasmic	enzyme activity, inhibitor	–	–	3980 nM
CCc1nc(C(N)=O)c(Nc2ccc(N3CCC(N4CCN(C)CC4)CC3)c(OC)c2)nc1NC1CCOCC1	SLC22A1 (Homo sapiens, UniProt O15245)	OCT1-mediated TEA uptake, inhibitor	HEK293 expressing OCT1	15 min, added: radiolabelled tetraethylammonium	157 nM
CCCNc1ccc2c3c(cccc13)C(=O)N(c1cc3c(cc1C)n(C)c(=O)n3C)C2=O	TAF1L BD2	HTRF	–	GST-tagged protein	22.3 nM
Cc1cc(Nc2nc(N[C@@H](C)c3ncc(F)cn3)ncc2Cl)n[nH]1	JAK1 (Homo sapiens, UniProt P23458)	enzyme activity, inhibitor	–	–	3.38 ± 1.49 nM
CNCCN1CCN(c2cnc3c(cc(C(=O)NCc4ccc(Cl)cc4)c(=O)n3CC(=O)N3CC(C)(F)C3)n2)C1=O	DNA polymerase catalytic subunit	enzyme activity, inhibitor	–	at least duplicate	570 nM
Cc1[nH]c(C)c(S(=O)(=O)Nc2cc(Cl)c(Cl)cc2Cl)c1C(=O)N1CCC(F)(F)C1	DRD2	–	–	–	> 100000 nM
COc1cc(N2CCC(N3CCN(C)CC3)CC2)ccc1Nc1ncc(Cl)c(Nc2ccccc2P(C)(C)=O)n1	NTRK3	enzyme activity, inhibitor	–	added: 1 mM ATP	> 3300 nM
COc1cccc(OC)c1-c1nc(-c2ccc(F)cc2)c(-c2ccncc2)[nH]1	CSNK1E	inhibitor	–	–	503 ± 23.3 nM
Cc1nn(C)c2ncc(C(=O)Nc3ccccc3)c(Cl)c12	60 kDa heat shock protein, mitochondrial with HSP10	HSP60/10-mediated MDH refolding	–	5 min, preincubation before ATP, added: denatured malate dehydrogenase	15000 nM
O=C(Nc1ccc(-c2cccc3ncccc23)cc1)C1CCN(S(=O)(=O)c2ccccc2Cl)CC1	FAAH	inhibitor	–	5 min preincubation	19.6 nM

SMILES	target	test	system	setting	IC50
Cc1cc(Nc2nnc(-c3n[nH]c4ccc(C)cc34)s2)cc([N+](=O)[O-])c1	α-glucosidase	enzyme activity, inhibitor	–	pH 6.8, added: p-nitrophenyl-α-D-glucopyranoside	6120 ± 740 nM
C[C@]1(c2nc(-c3cccc(N4CCNCC4)n3)no2)CCCc2sc(N)c(C#N)c21	KRAS C118S/G12V with SOS1	KRAS G12V-SOS1 interaction, inhibitor, AlphaScreen	–	geometric mean	145 nM
CCN(CC)CCCC(C)Nc1ccnc2cc(Cl)ccc12 (centres unmarked)	ULK1 (Homo sapiens, UniProt O75385)	enzyme activity, inhibitor	–	added: 10 µM ATP	> 10000 nM
COCCN1CCN(c2nccc(-c3noc([C@@]4(C)CCCc5sc(N)c(C#N)c54)n3)n2)[C@@H](C)C1	KRAS C118S/G12V with SOS1	KRAS G12V-SOS1 interaction, inhibitor, AlphaScreen	–	geometric mean	131 nM
COc1cc(N2CCC(N3CCN(C)CC3)CC2)ccc1Nc1ncc(Cl)c(Nc2ccccc2P(C)(C)=O)n1	SLC47A2 (Homo sapiens, UniProt Q86VL8)	transport, inhibitor	HEK cells transfected with SLC47A2	–	5190 nM
COc1ccccc1-c1nccc(COc2ccccc2C[C@@H](Oc2cccc3sc(-c4ccc(F)cc4)c(-c4ccc(OCCN5CCN(C)CC5)c(Cl)c4C)c23)C(=O)O)n1	MCL1	binding, quench	–	–	1.8 nM
CN1CCN(c2ccc(Nc3ncc4cc(C#N)c(=O)n(C5CCCC5)c4n3)cc2)CC1	SLK (Homo sapiens, UniProt Q9H2G2)	–	–	–	527 nM
COc1ccccc1-c1nccc(COc2ccccc2C[C@@H](Nc2ccnc3sc(-c4ccc(F)cc4)c(-c4ccc(OCCN5CCN(C)CC5)c(Cl)c4C)c23)C(=O)O)n1	MCL1	binding, quench	–	–	0.1 nM
Cc1nn(C)c2ncc(C(=O)NCC3CC(Br)=NO3)c(Cl)c12 (centres unmarked)	60 kDa heat shock protein, mitochondrial with HSP10	HSP60/10-mediated MDH refolding	–	5 min, preincubation before ATP, added: denatured malate dehydrogenase	> 100000 nM
Cc1[nH]c(C)c(S(=O)(=O)Nc2ccc(S(N)(=O)=O)c(Cl)c2)c1C(=O)N1CCC(F)(F)C1	DRD2	–	–	–	> 100000 nM
CC(C)C[C@H](NC(=O)[C@H](Cc1cccc2ccccc12)NC(=O)OCc1ccccc1)C(=O)NC(/C=C/C=O)C[C@@H]1CCNC1=O (some centres unmarked)	Genome polyprotein, protease domain (Lordsdale virus, UniProt P54634)	protease activity, inhibitor, FRET	–	37 °C	> 100000 nM
CC1(F)CN(C(=O)Cn2c(=O)c(C(=O)NCc3ccc(Cl)cc3)cc3nc(N4CCOC4=O)cnc32)C1	DNA polymerase catalytic subunit	enzyme activity	–	at least duplicate	290 nM
Cc1ccc(NS(=O)(=O)c2c(C)[nH]c(C)c2C(=O)N2CCC(F)(F)C2)cc1N(C)C	DRD2	–	–	–	> 100000 nM
CCn1c(-c2nc3cc(C(=O)N4CCC[C@@H](N)C4)cc(OC)c3n2C)cc2cccnc21	DRD2	antagonist, GTPγS LEADseeker	–	–	39800 nM
Cc1[nH]c(C)c(S(=O)(=O)Nc2ccc(C(F)(F)F)c(Cl)c2)c1C(=O)N1CCc2ccccc21	DRD2	–	–	–	> 100000 nM
CC[C@@H]1[C@H](F)C(=O)N[C@@H]1COc1nccc2cc(C(N)=O)c(OC)cc12	EPHA2 (Homo sapiens, UniProt P29317)	ATP-site binding, ActivX kinase profiling	THP-1 cell lysate	–	> 5000 nM
COC(=O)[C@@H]1CCCN1C(=O)c1c(C)[nH]c(C)c1S(=O)(=O)Nc1ccc(C(F)(F)F)c(Cl)c1	DRD2	–	–	–	> 100000 nM
COc1cc2c(c(OC)c1OC)-c1c(cc3c(c1OC)OCO3)[C@H](OC(=O)c1ccccc1)[C@@](C)(O)[C@@H](C)C2	Cytochrome P450 3A5 (CYP3A5, Homo sapiens, UniProt P20815)	midazolam 1'-hydroxylation, inhibitor, recombinant enzyme	–	15 min, pH 7.4, added: midazolam 5 µM	34 ± 1 nM

Some of these lines once more:
SMILES	target	test	system	setting	IC50
CCN(CC)CCCC(C)Nc1ccnc2cc(Cl)ccc12 (centres unmarked)	ULK1 (Homo sapiens, UniProt O75385)	enzyme activity, inhibitor	–	added: 10 µM ATP	> 10000 nM
COCCN1CCN(c2nccc(-c3noc([C@@]4(C)CCCc5sc(N)c(C#N)c54)n3)n2)[C@@H](C)C1	KRAS C118S/G12V with SOS1	KRAS G12V-SOS1 interaction, inhibitor, AlphaScreen	–	geometric mean	131 nM
COc1cc(N2CCC(N3CCN(C)CC3)CC2)ccc1Nc1ncc(Cl)c(Nc2ccccc2P(C)(C)=O)n1	SLC47A2 (Homo sapiens, UniProt Q86VL8)	transport, inhibitor	HEK cells transfected with SLC47A2	–	5190 nM
